Published values from different studies.
Protocols differ between the studies behind these lines. ± gives the spread as reported.

| Compound | test system | conditions | tissue uptake [%ID/g] |
| --- | --- | --- | --- |
| O=C([O-])CN1CCN(CC(=O)[O-])CCN(CC(=O)NCCc2ccc3c(c2)C2C=CCC2C(c2cc4c(cc2Br)OCO4)N3)CCN(CC(=O)[O-])CC1.[111In+3] (centres unmarked) | mouse, Hec50 endometrial tumour, brain | 2 h post injection | 0.06 ± 0.01 |
| CN(C)c1ccc(-c2nc3ccc(OCCCCCN4CCN5CCN(CC4)CC(=O)[O][Al]([18F])[O]C(=O)C5)cc3s2)cc1 | ICR mouse, muscle | intravenous, 60 min | 0.81 ± 0.76 |
| CN1C(=O)[C@@H](Cc2ccc(O)c(I)c2)NC(=O)CNC(=O)[C@H](Cc2ccc3ccccc3c2)NC(=O)[C@H](CCCNC(=N)N)NC(=O)[C@H]1CCCNC(=O)c1ccc(CNC(=O)CN2CCN(CC(=O)O)CCN(CC(=O)O)CCN(CC(=O)O)CC2)cc1 [lutetium-177 labelled] | female CB-17 SCID mouse, Daudi xenograft, liver | intravenous, 6 h, CXCR4 blocking, together with: AMD3100 2 mg/kg coinjected | 5.85 ± 0.24 |
| CCCC[C@H](NC(=O)CNC(=O)CNC(=O)CN1CCN(CC(=O)O)CCN(CC(=O)O)CCN(CC(=O)O)CC1)C(=O)N[C@H]1CC(=O)NCCCC[C@@H](C(N)=O)NC(=O)[C@H](Cc2c[nH]c3ccccc23)NC(=O)[C@H](CCCNC(=N)N)NC(=O)[C@@H](Cc2ccccc2)NC(=O)[C@H](Cc2c[nH]cn2)NC1=O [lead-203 labelled] | C57 mouse, lung | intravenous, 0.056 MBq, 24 h | 0.29 ± 0.12 |
| CC(C)[C@H](NC(=O)[C@@H]1CCCN1C(=O)[C@H](CCCNC(=N)N)NC(=O)[C@H](CS)NC(=O)[C@H](Cc1c[nH]c2ccccc12)NC(=O)[C@H](CCCNC(=N)N)NC(=O)[C@@H](Cc1ccccc1)NC(=O)[C@H](Cc1c[nH]cn1)NC(=O)[C@H](CCC(=O)O)NC(=O)[C@H](CS)NC(=O)[C@H](CS)NC(=O)CNC(=O)[C@@H]1CC(=O)N[C@@H](CCCNC(=N)N)C(=O)NCC(=O)N[C@@H](CC(=O)O)C(=O)N[C@H](Cc2ccc(O)cc2)C(=O)N1)C(N)=O [technetium-99m labelled] | C57 mouse, female, B16/F1 melanoma, skin | intravenous, 0.037 MBq, 0.5 h | 6.39 ± 0.84 |
| CCCC[C@H](NC(=O)CNC(=O)CNC(=O)CN1CCN(CC(=O)O)CCN(CC(=O)O)CC1)C(=O)N[C@H]1CC(=O)NCCCC[C@@H](C(N)=O)NC(=O)[C@H](Cc2c[nH]c3ccccc23)NC(=O)[C@H](CCCNC(=N)N)NC(=O)[C@@H](Cc2ccccc2)NC(=O)[C@H](Cc2c[nH]cn2)NC1=O [copper-64 labelled] | female C57 mouse, B16/F1 melanoma, muscle | intravenous, 0.037 MBq, 2 h | 0.29 ± 0.16 |
| CC(C)[C@H](NC(=O)[C@@H]1CCCN1C(=O)[C@H](CCCNC(=N)N)NC(=O)[C@H](CS)NC(=O)[C@H](Cc1c[nH]c2ccccc12)NC(=O)[C@H](CCCNC(=N)N)NC(=O)[C@@H](Cc1ccccc1)NC(=O)[C@H](Cc1c[nH]cn1)NC(=O)[C@H](CCC(=O)O)NC(=O)[C@H](CS)NC(=O)[C@H](CS)NC(=O)[C@@H]1CC(=O)N[C@@H](CCCNC(=N)N)C(=O)NCC(=O)N[C@@H](CC(=O)O)C(=O)N[C@H](Cc2ccc(O)cc2)C(=O)N1)C(N)=O [technetium-99m labelled] | C57 mouse, female, B16/F1 melanoma, bone | intravenous, 0.037 MBq, 24 h | 0.36 ± 0.27 |
| CCCC[C@H](NC(=O)CNC(=O)CNC(=O)CN1CCN(CC(=O)O)CCN(CC(=O)O)CCN(CC(=O)O)CC1)C(=O)N[C@H]1CC(=O)NCCCC[C@@H](C(N)=O)NC(=O)[C@H](Cc2c[nH]c3ccccc23)NC(=O)[C@H](CCCNC(=N)N)NC(=O)[C@@H](Cc2ccccc2)NC(=O)[C@H](Cc2c[nH]cn2)NC1=O [copper-64 labelled] | female C57 mouse, B16/F1 melanoma, brain | intravenous, 0.037 MBq, 2 h | 0.39 ± 0.22 |

For quick reference, copied from above:
| Compound | test system | conditions | tissue uptake [%ID/g] |
| --- | --- | --- | --- |
| O=C([O-])CN1CCN(CC(=O)[O-])CCN(CC(=O)NCCc2ccc3c(c2)C2C=CCC2C(c2cc4c(cc2Br)OCO4)N3)CCN(CC(=O)[O-])CC1.[111In+3] (centres unmarked) | mouse, Hec50 endometrial tumour, brain | 2 h post injection | 0.06 ± 0.01 |
